Assay results gathered from unrelated publications.
Each numbered part is a random draw from the data of one study; scales do not carry over between parts.

Block 1
Target: Histone acetyltransferase KAT6A, both winged helices, GST fusion (KAT6A, Homo sapiens, UniProt Q92794, residues 1-181)
Method: protein binding microarray
Molecule type: double-stranded DNA, one strand shown
Sample: in vitro
Concentration: not given
Notes: 8-mer, flanks averaged, mean of 2 arrays, mostly near background
Reference: not given
Reading: higher = stronger binding
Target sequence (chain): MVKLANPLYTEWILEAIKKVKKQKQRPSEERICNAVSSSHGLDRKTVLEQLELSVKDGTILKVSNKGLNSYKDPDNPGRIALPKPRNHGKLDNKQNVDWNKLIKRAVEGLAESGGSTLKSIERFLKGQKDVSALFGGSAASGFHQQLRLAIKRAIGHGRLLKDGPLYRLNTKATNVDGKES
The E-score of `ACCGTGTG` is reported as 0.0505.
For `CTATGAGA`, the E-score was -0.246.
`GCGGCTAA` has an E-score of 0.307.
`GATCTAGA` gave an E-score of -0.11.
`CCTTTGGC` gave an E-score of -0.169.
For `GTCCAAAC`, the E-score was -0.16.
`CTTGAAGC` has an E-score of 0.0752.
For `TAGGAATA`, the E-score was -0.261.
The E-score of `ATAGATAT` is reported as -0.0343.

Block 2
Target: Centromere-binding protein 1, full length, His-tagged (CBF1, Saccharomyces cerevisiae, UniProt P17106, residues 1-351)
Chain of UniProt P17106 (whole entry, looked up): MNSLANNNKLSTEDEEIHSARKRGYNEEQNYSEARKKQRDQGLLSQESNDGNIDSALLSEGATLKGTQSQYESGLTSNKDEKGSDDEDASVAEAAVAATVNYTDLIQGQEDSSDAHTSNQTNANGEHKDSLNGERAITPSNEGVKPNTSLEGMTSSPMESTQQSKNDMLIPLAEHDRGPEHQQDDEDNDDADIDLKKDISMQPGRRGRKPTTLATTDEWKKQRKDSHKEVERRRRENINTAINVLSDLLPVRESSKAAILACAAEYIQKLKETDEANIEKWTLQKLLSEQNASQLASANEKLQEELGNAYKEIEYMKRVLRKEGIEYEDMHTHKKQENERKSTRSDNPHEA
Method: competition protein-binding microarray
Molecule type: double-stranded DNA, one strand shown
Sample: in vitro
Concentration: 2 µM
Notes: whole 60-bp probe, lowest competitor level
Added: Pho4 competitor, 0.05 µM
Reading: higher = stronger binding
For `CTTTCCCGATCTTGAATGGTGGGTGTAGCACATTTGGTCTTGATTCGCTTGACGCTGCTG`, the fluorescence intensity was 74.9 a.u.
`TACTTCGATGCCCAACACGTTATTCACATCTCTCAAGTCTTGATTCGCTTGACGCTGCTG` gave a fluorescence intensity of 103 a.u.
`CAAAATGGCAACTGGCACGTGAAGCTGTCGATATTGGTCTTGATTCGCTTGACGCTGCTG` has a fluorescence intensity of 1120 a.u.
The fluorescence intensity of `TTCACTTGTTTGAAAAACGTGTCGGAGGGATGTTCTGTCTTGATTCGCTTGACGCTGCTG` is reported as 106 a.u.
`TGTAAGTTGCAATCGCACGTGTGTTGTAGCCATGTAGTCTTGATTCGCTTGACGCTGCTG` gave a fluorescence intensity of 768 a.u.
`GCCAAAGTGGTCTTTCACATGCTTACCTACCCGCTAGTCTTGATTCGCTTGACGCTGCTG` has a fluorescence intensity of 75.8 a.u.
With `CGGGGTTAAGTTTGCCACGTGGGTGGCTTGCAGCAGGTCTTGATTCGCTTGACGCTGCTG` the fluorescence intensity was 580 a.u.
The fluorescence intensity of `CGTCCTAGTGATTGTCACGATACTTCCATGAGGAAGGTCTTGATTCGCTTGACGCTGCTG` is reported as 234 a.u.
For `CTTGCTCACTTCTGGCGTGTTCAAGTGGGGATCTGTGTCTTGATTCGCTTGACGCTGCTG`, the fluorescence intensity was 70.3 a.u.
`AAATTACTAAGTTGGCTGGTGGGTGACGCCGTATGAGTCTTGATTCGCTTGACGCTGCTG` has a fluorescence intensity of 60.9 a.u.
`CATACCCAACCTTGATATGTGGGTGAAGATATTTGTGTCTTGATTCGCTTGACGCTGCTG` gave a fluorescence intensity of 86.7 a.u.
`TAGAGAGTTGTCCATCACGTTGGACAGGTTGTACTTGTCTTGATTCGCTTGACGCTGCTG` gave a fluorescence intensity of 183 a.u.
`CTTCTGTAAATTTTTCACGTGGGATGACGCGCCCCGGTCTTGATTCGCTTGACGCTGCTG` gave a fluorescence intensity of 613 a.u.
`CTTATCTCGAGGAGTAACGTGGGTAGTTTGTTGGTCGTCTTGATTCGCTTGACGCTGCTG` has a fluorescence intensity of 103 a.u.
With `AACTGCTGAAGTCCCCATGTGACAGTGAGCGGGGTCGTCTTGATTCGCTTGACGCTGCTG` the fluorescence intensity was 284 a.u.

Block 3
Target: Sal-like protein 4, full length isoform A (SALL4, Homo sapiens, UniProt Q9UJQ4, residues 1-1053)
Chain of UniProt Q9UJQ4 (whole entry, looked up): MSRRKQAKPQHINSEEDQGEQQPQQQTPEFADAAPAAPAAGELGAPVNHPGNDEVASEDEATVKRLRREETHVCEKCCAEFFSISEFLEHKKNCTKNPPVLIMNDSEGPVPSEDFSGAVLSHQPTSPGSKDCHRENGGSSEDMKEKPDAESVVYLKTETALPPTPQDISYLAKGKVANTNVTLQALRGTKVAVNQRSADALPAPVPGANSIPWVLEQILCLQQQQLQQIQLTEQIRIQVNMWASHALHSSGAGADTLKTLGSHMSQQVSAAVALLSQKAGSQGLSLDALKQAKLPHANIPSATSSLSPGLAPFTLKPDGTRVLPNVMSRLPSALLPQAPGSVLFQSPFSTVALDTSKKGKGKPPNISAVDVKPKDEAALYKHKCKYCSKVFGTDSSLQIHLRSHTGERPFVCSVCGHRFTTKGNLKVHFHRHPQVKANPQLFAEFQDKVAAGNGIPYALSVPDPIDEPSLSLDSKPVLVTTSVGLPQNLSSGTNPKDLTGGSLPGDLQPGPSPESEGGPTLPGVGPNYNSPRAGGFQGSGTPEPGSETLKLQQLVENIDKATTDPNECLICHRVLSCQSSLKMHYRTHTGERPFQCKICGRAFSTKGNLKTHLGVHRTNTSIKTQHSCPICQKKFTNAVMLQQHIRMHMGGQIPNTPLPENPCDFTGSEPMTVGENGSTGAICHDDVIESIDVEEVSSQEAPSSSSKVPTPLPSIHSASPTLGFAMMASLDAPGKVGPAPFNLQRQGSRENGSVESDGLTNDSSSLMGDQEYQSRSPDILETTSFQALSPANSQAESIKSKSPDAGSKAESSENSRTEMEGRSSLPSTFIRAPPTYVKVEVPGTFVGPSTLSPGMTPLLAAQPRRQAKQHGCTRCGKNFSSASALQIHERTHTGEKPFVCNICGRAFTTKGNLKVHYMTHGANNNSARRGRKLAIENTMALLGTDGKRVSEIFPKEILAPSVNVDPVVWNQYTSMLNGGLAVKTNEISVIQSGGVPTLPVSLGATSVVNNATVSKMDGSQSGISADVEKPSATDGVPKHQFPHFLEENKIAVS
Method: universal PBM
Molecule type: double-stranded DNA, one strand shown
Sample: in vitro
Concentration: 600 nM
Notes: 8-mer, flanks averaged, mean of replicates
Reading: higher = stronger binding
With `CGATTTAC` the E-score was 0.0772.
`GGTACTAA` has an E-score of -0.0317.
With `ACTTCCCC` the E-score was -0.175.
With `CGACGCAA` the E-score was -0.269.
The E-score of `ACTCGACA` is reported as -0.0371.
With `AACTTCAT` the E-score was 0.192.
The E-score of `AAACGTCC` is reported as -0.0404.
The E-score of `CAAAACTG` is reported as 0.157.
`ATTGGAAC` gave an E-score of 0.149.
With `AGCGTTAC` the E-score was -0.0235.
The E-score of `AATGGTTG` is reported as 0.0423.
With `ACACCAGA` the E-score was -0.00877.
With `TAGCCTCA` the E-score was -0.0156.
`CCATAGGG` gave an E-score of -0.0995.
`CGGGACAC` has an E-score of -0.309.

Block 4
Molecule: PhoQ, residues 284 288 289 292 302 303 SMMNNA
Method: Sort-seq
Measured: YFP reporter
Sample: E. coli
Notes: PhoQ-PhoP variant library
Added: 10 µM Mg2+
Reference: high Mg2+ state
Reading: higher = stronger signaling
For PhoP, residues 12 14 15 18 19 TQCLL (Escherichia coli, UniProt P23836): fold induction read 10.2.
PhoP, residues 12 14 15 18 19 ICWRQ (Escherichia coli, UniProt P23836) — fold induction: 5.85.
It gave 8.67 for fold induction (PhoP, residues 12 14 15 18 19 VHTVL (Escherichia coli, UniProt P23836)).

Mixed results
For `KRT8 (Homo sapiens, UniProt P05787)`, interaction screen read “cross-linked” (KRT10 (Homo sapiens, UniProt P13645); cross-linking MS; hits only).

Some of these lines once more (block 2):
`CAAAATGGCAACTGGCACGTGAAGCTGTCGATATTGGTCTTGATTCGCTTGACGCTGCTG` has a fluorescence intensity of 1120 a.u.
The fluorescence intensity of `TTCACTTGTTTGAAAAACGTGTCGGAGGGATGTTCTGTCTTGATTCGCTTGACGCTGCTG` is reported as 106 a.u.
`TGTAAGTTGCAATCGCACGTGTGTTGTAGCCATGTAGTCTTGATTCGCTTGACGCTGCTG` gave a fluorescence intensity of 768 a.u.
`GCCAAAGTGGTCTTTCACATGCTTACCTACCCGCTAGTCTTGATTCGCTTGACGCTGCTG` has a fluorescence intensity of 75.8 a.u.
With `CGGGGTTAAGTTTGCCACGTGGGTGGCTTGCAGCAGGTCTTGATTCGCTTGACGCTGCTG` the fluorescence intensity was 580 a.u.
